# Measurements of several laboratories.
# Parts stem from different laboratories: compare values within a part only.
# UniProt Q9BRS2, sequence (whole entry, looked up): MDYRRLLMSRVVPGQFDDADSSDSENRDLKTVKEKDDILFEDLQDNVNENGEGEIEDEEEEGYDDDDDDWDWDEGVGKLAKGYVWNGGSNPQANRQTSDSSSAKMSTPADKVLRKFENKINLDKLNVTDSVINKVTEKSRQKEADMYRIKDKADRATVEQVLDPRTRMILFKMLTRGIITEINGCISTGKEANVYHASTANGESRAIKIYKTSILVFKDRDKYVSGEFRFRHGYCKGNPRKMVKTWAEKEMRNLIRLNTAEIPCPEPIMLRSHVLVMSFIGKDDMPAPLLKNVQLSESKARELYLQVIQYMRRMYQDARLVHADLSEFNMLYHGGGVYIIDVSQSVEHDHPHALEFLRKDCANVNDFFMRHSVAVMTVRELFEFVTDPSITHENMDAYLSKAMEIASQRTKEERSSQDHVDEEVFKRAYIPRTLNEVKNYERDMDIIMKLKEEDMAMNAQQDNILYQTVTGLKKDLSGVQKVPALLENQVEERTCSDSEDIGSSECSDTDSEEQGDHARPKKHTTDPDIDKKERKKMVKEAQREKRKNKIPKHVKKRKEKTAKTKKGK
# UniProt P35462, sequence (whole entry, looked up): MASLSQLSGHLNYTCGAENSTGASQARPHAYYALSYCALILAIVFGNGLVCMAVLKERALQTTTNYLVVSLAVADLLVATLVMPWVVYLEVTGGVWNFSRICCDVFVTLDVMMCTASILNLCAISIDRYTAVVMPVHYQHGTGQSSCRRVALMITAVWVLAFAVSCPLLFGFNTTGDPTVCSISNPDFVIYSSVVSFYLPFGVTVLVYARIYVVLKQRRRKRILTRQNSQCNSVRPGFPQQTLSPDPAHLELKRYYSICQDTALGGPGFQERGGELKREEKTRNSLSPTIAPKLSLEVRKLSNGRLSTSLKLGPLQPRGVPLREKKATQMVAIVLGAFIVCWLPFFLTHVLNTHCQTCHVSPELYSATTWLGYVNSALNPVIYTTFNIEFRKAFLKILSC
# UniProt Q12866, sequence (whole entry, looked up): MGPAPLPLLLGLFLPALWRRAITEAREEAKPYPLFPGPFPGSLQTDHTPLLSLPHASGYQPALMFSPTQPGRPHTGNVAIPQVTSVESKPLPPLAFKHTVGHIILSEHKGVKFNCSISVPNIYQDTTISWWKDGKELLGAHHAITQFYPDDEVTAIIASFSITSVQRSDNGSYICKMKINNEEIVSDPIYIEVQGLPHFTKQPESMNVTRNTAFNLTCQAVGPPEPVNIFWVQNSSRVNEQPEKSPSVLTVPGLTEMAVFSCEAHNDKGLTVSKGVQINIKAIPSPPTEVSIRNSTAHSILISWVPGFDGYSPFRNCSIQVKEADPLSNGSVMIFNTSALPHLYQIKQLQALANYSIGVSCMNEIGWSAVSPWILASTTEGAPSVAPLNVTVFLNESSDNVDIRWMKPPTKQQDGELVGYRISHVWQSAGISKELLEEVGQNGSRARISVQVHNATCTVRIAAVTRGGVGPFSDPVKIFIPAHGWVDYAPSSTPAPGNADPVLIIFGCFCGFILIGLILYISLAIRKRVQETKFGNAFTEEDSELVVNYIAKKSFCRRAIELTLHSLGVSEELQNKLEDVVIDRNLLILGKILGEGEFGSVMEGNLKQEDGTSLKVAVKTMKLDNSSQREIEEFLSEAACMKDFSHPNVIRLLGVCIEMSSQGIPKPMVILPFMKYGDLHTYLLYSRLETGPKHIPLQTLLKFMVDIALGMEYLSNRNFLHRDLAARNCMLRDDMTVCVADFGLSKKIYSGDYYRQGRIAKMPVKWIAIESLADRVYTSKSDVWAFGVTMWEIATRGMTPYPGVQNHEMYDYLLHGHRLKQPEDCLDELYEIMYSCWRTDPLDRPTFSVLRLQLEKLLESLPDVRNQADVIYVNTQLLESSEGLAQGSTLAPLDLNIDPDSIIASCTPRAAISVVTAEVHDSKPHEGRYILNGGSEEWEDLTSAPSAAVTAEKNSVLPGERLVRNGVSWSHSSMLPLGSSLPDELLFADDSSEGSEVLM
# UniProt P42685, sequence (whole entry, looked up): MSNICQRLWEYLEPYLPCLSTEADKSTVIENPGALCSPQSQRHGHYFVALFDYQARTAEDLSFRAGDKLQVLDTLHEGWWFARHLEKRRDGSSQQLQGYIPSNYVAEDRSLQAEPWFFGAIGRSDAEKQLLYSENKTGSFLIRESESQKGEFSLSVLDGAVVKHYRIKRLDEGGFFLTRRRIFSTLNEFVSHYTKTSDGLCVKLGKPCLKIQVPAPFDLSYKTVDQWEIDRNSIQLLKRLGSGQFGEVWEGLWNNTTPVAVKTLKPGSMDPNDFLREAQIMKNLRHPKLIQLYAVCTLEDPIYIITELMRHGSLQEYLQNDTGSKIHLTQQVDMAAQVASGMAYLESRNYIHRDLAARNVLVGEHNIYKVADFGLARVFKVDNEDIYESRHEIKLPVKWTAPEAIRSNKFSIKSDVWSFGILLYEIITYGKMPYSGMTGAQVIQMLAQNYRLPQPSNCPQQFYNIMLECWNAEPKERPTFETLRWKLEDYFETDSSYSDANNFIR
# UniProt Q15349, sequence (whole entry, looked up): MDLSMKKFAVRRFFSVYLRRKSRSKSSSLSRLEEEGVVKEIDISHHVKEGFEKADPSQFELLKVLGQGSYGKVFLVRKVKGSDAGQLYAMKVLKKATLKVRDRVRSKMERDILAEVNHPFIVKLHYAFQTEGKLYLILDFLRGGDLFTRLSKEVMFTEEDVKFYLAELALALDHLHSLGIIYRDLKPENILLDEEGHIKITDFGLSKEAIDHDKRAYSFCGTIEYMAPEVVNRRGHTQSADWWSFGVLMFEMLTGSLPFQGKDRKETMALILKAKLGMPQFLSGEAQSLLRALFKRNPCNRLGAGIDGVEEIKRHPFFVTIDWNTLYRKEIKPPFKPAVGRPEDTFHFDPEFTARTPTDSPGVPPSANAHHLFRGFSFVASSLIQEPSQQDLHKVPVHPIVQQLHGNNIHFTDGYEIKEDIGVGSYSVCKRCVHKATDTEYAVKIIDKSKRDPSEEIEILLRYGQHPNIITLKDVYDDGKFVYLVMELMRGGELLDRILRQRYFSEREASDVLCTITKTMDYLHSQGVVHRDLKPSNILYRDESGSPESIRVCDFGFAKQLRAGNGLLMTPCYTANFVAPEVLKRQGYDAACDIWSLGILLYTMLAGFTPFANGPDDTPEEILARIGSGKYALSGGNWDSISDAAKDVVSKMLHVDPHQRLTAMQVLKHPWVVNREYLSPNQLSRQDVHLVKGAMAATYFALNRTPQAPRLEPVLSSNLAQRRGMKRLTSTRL
# UniProt Q07002, sequence (whole entry, looked up): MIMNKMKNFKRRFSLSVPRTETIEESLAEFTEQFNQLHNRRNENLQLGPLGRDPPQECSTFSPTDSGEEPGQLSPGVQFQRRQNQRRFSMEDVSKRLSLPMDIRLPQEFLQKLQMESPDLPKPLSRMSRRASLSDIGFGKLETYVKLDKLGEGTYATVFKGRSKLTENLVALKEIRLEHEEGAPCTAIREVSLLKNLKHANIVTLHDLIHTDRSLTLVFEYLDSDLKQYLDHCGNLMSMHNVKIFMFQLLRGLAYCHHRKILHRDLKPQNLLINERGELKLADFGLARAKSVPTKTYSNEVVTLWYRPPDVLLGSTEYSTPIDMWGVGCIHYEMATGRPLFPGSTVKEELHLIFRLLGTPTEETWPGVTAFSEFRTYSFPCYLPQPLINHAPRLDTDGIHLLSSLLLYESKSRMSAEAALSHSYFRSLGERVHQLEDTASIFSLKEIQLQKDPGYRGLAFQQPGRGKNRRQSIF
# UniProt P07333, sequence (whole entry, looked up): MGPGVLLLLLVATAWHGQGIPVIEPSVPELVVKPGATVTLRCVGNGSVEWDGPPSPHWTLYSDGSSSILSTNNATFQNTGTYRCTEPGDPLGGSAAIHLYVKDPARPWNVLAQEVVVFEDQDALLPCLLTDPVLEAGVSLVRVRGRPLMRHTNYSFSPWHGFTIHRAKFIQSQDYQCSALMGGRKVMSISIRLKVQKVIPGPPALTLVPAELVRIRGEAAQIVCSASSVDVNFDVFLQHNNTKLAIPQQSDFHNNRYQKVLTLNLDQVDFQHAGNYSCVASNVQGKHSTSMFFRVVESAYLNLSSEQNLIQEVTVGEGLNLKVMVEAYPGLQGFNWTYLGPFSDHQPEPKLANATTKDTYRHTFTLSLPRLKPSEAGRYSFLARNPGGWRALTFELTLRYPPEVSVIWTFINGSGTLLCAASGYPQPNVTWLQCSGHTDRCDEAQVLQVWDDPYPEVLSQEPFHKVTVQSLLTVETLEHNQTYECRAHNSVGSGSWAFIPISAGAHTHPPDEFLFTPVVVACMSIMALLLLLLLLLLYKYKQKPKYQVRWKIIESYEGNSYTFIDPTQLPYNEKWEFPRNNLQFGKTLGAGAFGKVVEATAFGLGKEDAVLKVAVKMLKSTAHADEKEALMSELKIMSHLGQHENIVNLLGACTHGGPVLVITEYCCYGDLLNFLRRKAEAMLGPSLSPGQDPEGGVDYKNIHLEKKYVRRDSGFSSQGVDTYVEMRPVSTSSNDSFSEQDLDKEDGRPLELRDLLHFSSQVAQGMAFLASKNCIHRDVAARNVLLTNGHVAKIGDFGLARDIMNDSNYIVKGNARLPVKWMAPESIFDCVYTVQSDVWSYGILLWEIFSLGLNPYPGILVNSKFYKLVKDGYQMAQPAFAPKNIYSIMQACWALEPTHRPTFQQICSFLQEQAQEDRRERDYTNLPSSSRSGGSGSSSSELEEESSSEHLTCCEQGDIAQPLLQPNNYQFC
# UniProt Q6U736, sequence (whole entry, looked up): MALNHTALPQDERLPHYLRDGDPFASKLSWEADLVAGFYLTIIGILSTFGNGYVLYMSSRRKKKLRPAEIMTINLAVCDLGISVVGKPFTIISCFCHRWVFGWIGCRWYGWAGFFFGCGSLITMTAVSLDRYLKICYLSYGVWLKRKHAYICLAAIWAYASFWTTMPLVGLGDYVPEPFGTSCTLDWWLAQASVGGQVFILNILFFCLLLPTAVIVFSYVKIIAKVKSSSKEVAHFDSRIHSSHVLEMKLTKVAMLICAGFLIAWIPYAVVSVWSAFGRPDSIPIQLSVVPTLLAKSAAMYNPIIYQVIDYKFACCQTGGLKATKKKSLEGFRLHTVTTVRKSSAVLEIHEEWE

# Set 1
# Compound: O=C(N[C@H]1CCCCC/C=C\C2C[C@@]2(C(=O)O)NC(=O)[C@@H]2C[C@@H](Oc3ccncc3)CN2C1=O)OC1CCCC1 (stereo partly drawn)
# Tested at: 1 µM
target,read-out,technique,remaining binding
"FLT3 (Homo sapiens, UniProt P36888, D835H)",binding,competition with immobilised ligand,56%
"CDK18 (Homo sapiens, UniProt Q07002)",binding,competition with immobilised ligand,92%
"PKN2 (Homo sapiens, UniProt Q16513)",binding,competition with immobilised ligand,75%
"RIOK1 (Homo sapiens, UniProt Q9BRS2)",binding,competition with immobilised ligand,63%
"Macrophage colony-stimulating factor 1 receptor, autoinhibited (CSF1R, Homo sapiens, UniProt P07333)",cell-free assay,competition with immobilised ligand,92%
"DCLK1 (Homo sapiens, UniProt O15075)",binding,competition with immobilised ligand,97%
"BMX (Homo sapiens, UniProt P51813)",binding,competition with immobilised ligand,66%
"GSK3B (Homo sapiens, UniProt P49841)",binding,competition with immobilised ligand,89%
"SIK1 (Homo sapiens, UniProt P57059)",,competition binding,83%
"LIM domain kinase 1 (LIMK1, Homo sapiens, UniProt P53667)",binding,competition with immobilised ligand,92%
"SRPK3 (Homo sapiens, UniProt Q9UPE1)",binding,competition with immobilised ligand,89%

# Set 2
# Structure (SMILES): COc1cc2ncnc(Nc3ccc(O)c(Br)c3)c2cc1OC
# Read-out: enzyme activity
# Action: inhibitor
# Tested at: 0.5 µM
# Baseline: control
target,remaining activity
"RPS6KA2 (Homo sapiens, UniProt Q15349)",63.6%
"EPHA3 (Homo sapiens, UniProt P29320)",95.4%
"FRK (Homo sapiens, UniProt P42685)",74.7%
"ACVR1B (Homo sapiens, UniProt P36896)",105%
"TBK1 (Homo sapiens, UniProt Q9UHD2)",84.7%
"MAPKAPK2 (Homo sapiens, UniProt P49137)",97.7%
"MERTK (Homo sapiens, UniProt Q12866)",87.7%
"NEK1 (Homo sapiens, UniProt Q96PY6)",90.5%
"TEK (Homo sapiens, UniProt Q02763)",93.8%
"MST1R (Homo sapiens, UniProt Q04912)",101%
"FGFR1 (Homo sapiens, UniProt P11362)",93.4%
"TAOK2 (Homo sapiens, UniProt Q9UL54)",95.8%
"ULK2 (Homo sapiens, UniProt Q8IYT8)",104%

# Set 3
# Structure (SMILES): N=C(N)NC(=O)c1cnn(-c2cccc3ncccc23)c1C1CC1
# Read-out: β-arrestin recruitment
# Action: agonist
# Technique: PRESTO-Tango
# Tested at: 10 µM
# Baseline: untreated
target,fold over basal
"MRGPRX2 (Homo sapiens, UniProt Q96LB1)",1.06
"Opsin-5 (OPN5, Homo sapiens, UniProt Q6U736)",1.27
"LPAR4 (Homo sapiens, UniProt Q99677)",1.16
"Probable G-protein coupled receptor 152 (GPR152, Homo sapiens, UniProt Q8TDT2)",1.07
"GPER1 (Homo sapiens, UniProt Q99527)",1.41
"F2RL1 (Homo sapiens, UniProt P55085)",1
"DRD3 (Homo sapiens, UniProt P35462)",2.14
"S1PR3 (Homo sapiens, UniProt Q99500)",0.74
"HRH2 (Homo sapiens, UniProt P25021)",0.88 fold
"Probable G-protein coupled receptor 153 (GPR153, Homo sapiens, UniProt Q6NV75)",1.16
"NMBR (Homo sapiens, UniProt P28336)",0.97
"G-protein coupled receptor family C group 6 member A (GPRC6A, Homo sapiens, UniProt Q5T6X5)",1.44 fold
"CHRM3 (Homo sapiens, UniProt P20309)",0.75

# Set 4
# Organism: Sarcocystis neurona
# Read-out: parasite growth
# Tested at: 10 µM
# Time: 96 h
# Setting: secondary screen
Structure (SMILES),inhibition [%]
CC(=O)OCC(=O)[C@@]1(O)CC[C@H]2[C@@H]3C[C@H](C)C4=CC(=O)C=C[C@]4(C)[C@H]3[C@@H](O)C[C@@]21C,-20.7
C[C@@H]1O[C@@H](OC[C@H]2O[C@@H](Oc3c(-c4ccc(O)c(O)c4)oc4cc(O)cc(O)c4c3=O)[C@H](O)[C@@H](O)[C@@H]2O)[C@H](O)[C@H](O)[C@H]1O,-18.1
CNS(=O)(=O)Cc1ccc2[nH]cc(CCN(C)C)c2c1,-24.9
O=C(NCCO[N+](=O)[O-])c1cccnc1,-41.2
Nc1ccc(O)c(C(=O)O)c1,-23.2
Cc1cccc(Nc2ccccc2C(=O)O)c1C,-14.2
Cc1noc(NS(=O)(=O)c2ccc(N)cc2)c1C,-25.4
Nc1nc(O)c2ncn(COC(CO)CO)c2n1,-20.4
CC(=O)NS(=O)(=O)c1ccc(N)cc1,-8
Cc1ccc(C)c(OCCCC(C)(C)C(=O)O)c1,-15.6
COc1ccc(Cl)cc1C(=O)NCCc1ccc(S(=O)(=O)NC(=O)NC2CCCCC2)cc1,0.8

# Repeated from above (set 2):
target,remaining activity
"RPS6KA2 (Homo sapiens, UniProt Q15349)",63.6%
"EPHA3 (Homo sapiens, UniProt P29320)",95.4%
"FRK (Homo sapiens, UniProt P42685)",74.7%
"ACVR1B (Homo sapiens, UniProt P36896)",105%
"TBK1 (Homo sapiens, UniProt Q9UHD2)",84.7%
"MAPKAPK2 (Homo sapiens, UniProt P49137)",97.7%
"MERTK (Homo sapiens, UniProt Q12866)",87.7%
